Results pooled from the literature.
Each numbered part is a random draw from the data of one study; scales do not carry over between parts.

Sample 1 — method: RNA Bind-n-Seq; form: RNA; sample: in vitro; tested at: 365 nM; relative to: no-protein control; direction: higher = stronger binding
Target: RNA binding protein fox-1 homolog 2, RRM domain, GST-SBP tag (RBFOX2, Homo sapiens, UniProt O43251-10, residues 100-194)
Notes: natural RNA segment, single round, ends assumed
Constant ends, left off below: GGGAGUUCUACAGUCCGACGAUC … UGGAAUUCUCGGGUGCCAA
Residues (chain): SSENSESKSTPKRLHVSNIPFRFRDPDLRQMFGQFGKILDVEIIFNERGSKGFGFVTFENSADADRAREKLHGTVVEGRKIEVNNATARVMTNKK
Strand	RBNS enrichment (R)
CUUAUCAUCUGCCCUAUCUUGCCCCUUCCUGUGGAGUGGGCAGAAGGGCUCCCGGGAUCCUCAGAGCUCCCAGGUCUGAGCAGCCAAAGGCCCAGCUGGGCCUCCAGGAC	0.225
CCGUAUGUGGCAAAUUCUAAGCUGCCAUAUUGAACAUCAUCCCACUGGGAGUGGUUAUGUUGUAUCCCCAUCUUGGCUGGCUUCAGUUUUUGCUGUAGCCCUAGAGCACU	0.272
GUUCUGGCUGUUUUCUGUCUGGUGGAGAAGCCUGCUUGUCAAAGCUGACCUCUUAGAGCCGCACAGAUGUGCUAGCCACCAAAAACCUCCUGUAACCAUGCAAGCCUGUA	0.248
UUAAAAUUUUAAAGCAAUCUUGGCAGACUAAAACAAGUACAUCUGUACAUGACUGUAUAAUUACGAUUAUAGUACCACUGCACAUCAUGUUUUUUUUUUUAAGACAAAAA	0.336
GAAGAGUUCAAACAGAUGAUGUUUUUUCCAAAGAAAAACAAAUUGUUGACUCUCUUCCAUGCAUAUUUUAAGGAUUUGAAUCUGAUUUGAUUUGGAAAGUCAUGAAACUU	0.494
CUUUUCAUUUGGGGGUUUUUGGGGAAAAAAUUUAUUUUUGGUUCCAAAUAGAAAAACAAAACCUAUUUUGAUCUUUAGUGCAAACGAGGGCUAGGGACUUAGCCUCCUCC	0.383
GCCACAGCAUCUCACACCCCAGAGGCCUGGAGCAGAGGGAGAUUGGCUGAACUUGAUAGCAGACCUGCUCGGGUCCCUGCCUCCCACUCUGGCCUCUGCCUUUCUCCCUC	0.622
UAUUUUUUCUAGCCUAUGUAGUUGUUCAGCUUUUAACAAAUAACUCUGGCAGUAUUUUAAACAUGCUAGCAUUUCAGGGGUAUUCUACUUAAAAACAAAACAAAACUGGG	0.557
UUUUAUUUAGAUUUUGUUUUUCAUCUUACUAUGUACCAGUGGCACUUAACCAAAAGAUACAGUAACAUAGCCAUGUACUGUGGUUGGGACAGAUACAGUCUCCUUGGCUU	0.437
GAACAAAUUUAUUUUGCUUACCACAGUGUUAUAGCUGGUUCUAGAAAUUUGAAGUCUUUAUAACUUAAUUAUGUUUAAUAAAAAAUAGAGUCUGCCUCGUACUACAGAUG	0.498
CUUUCAAGGUCAGCUUCCCCAUAGCUCAGGUAUCCUUUGCUCUCCUGUAUCUUCAUUUACUAUUAGUGAAGAGAUCUCUGUCCUGGAGGUUAUUCUAAACUUUCUUUGUA	0.275
CAAAAUAGGGAAUUAACUUUUGUACAGUCUGGGCAUUUACAUGUAUUUUUAAUGUAUUACAAUUUGGUAAUUAUGUGCACAUGAAAUUAAUAAAAGUUACUUCCUGUUAU	0.594

Sample 2 — method: protein binding microarray; form: double-stranded DNA, one strand shown; sample: in vitro; tested at: not given; relative to: not given; direction: higher = stronger binding
Target: Histone acetyltransferase KAT6A, winged helix 2, GST fusion (KAT6A, Homo sapiens, UniProt Q92794, residues 85-181)
Notes: 8-mer, flanks averaged, mean of 2 arrays, mostly near background
Residues (chain): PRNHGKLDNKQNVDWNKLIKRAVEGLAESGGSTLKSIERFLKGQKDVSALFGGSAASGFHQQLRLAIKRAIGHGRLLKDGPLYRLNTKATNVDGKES
Strand	E-score
GTTGAATA	0.0733
ATGCTGCA	0.0254
GAGTCTGA	-0.0514
CAAACGTA	-0.159
ACTCGTAT	0.0323
GCGGTTAC	0.0533
CTCATGAG	0.0848
CTGTACTA	-0.0574
AGGGGGCG	0.16
AATTTGCC	0.0218
AATTCGGT	0.0412
CAGGTAAC	-0.116
AACGCCTC	-0.119
GTCAGGGA	-0.106
AGCGCTCG	-0.0191
CTCTTTTC	-0.155
AGGCGCAC	0.0856
CGCCCAGC	0.146
CTTTGGGA	0.0762
CACCTCGG	0.0436
CCACCCAA	-0.145

Sample 3 — method: RNA Bind-n-Seq; form: RNA; sample: in vitro; tested at: 200 nM; notes: whole 134-nt RNA, ends assumed; with: 150 mM KCl; relative to: input library; direction: higher = stronger binding
Target: Ras GTPase-activating protein-binding protein 1, full length (G3BP1, Homo sapiens, UniProt Q13283)
UniProt Q13283, sequence (whole entry, looked up): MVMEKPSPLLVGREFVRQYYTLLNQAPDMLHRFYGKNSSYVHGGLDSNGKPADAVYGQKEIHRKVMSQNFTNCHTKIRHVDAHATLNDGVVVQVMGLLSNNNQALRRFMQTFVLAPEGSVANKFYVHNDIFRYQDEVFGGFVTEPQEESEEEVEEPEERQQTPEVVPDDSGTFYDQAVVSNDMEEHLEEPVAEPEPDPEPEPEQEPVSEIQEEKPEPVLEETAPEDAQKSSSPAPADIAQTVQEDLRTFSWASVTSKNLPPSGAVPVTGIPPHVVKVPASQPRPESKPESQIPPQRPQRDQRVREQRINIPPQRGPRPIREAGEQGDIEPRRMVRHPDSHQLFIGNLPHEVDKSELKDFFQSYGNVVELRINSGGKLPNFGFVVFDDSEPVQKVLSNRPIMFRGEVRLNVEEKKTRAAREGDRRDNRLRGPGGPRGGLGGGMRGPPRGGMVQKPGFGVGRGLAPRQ
Constant ends, left off below: GGGAGUUCUACAGUCCGACGAUC … UGGAAUUCUCGGGUGUCAAGG
Strand	log2 enrichment
CAAGUCCUGUGCUACACAUCGUAUGUACCGAAUCGGGAAAAAAAGGGAGGGUGGGAAAGUAUUAUGUUACGCCGUUCGGAUCUGCACUUC	0.462
UCCUGUGCUACACAUCGUAUGUACCGAAUCGGGUUUUUUGGGUUUUUUGGGUUUUUUGGGAAAGUAUUAUGUUACGCCGUUCGGAUCUGC	-0.264
GCAGGAAGUAAAAACAAAUGGAAAUGCUUCGGAUAGUGGCAGGGGUGGGGGUUGCUAAGGAAAGGGUGCGAUGGGAGUGGGUAAAGAGUU	0.831
UUUCCAGCAGUACCAGCUCCAGCCAGGAUCACCCUCUCUACUCUGGGCACCCAUCCCUUCCACUAAGUGGUGCUAUUGCUGCUUUUGCCU	0.453
UUUUCUGUUUGAAACAGUUUUAUACUUUCUGAUAUAGUACUUGAAAUUCUUACCAGAAAAUUACUUUGGAGUUUUGAAGCCUUUAUUAAU	-1.1
UUCUCUGCCGGCUCAGAGGAGAGGAGACGCCGUGAGCGGGACGACCAGAUGUACCGAGAGCGGCUGCGCACCUUGCUGGUCAUCGCGGUU	-1.66
CACAGACAACACGCAUCCACACAGACACAGAGGGAAGGGGUUGGGAUGGGGACAGGGUGCACAGCAGGGCGGGGUAGGACCCCAGCCCCU	1.75
CUCAAGUCCUGUGCUACACAUCGUAUGUACCGAAUCGGAGGUUUGGAAAAAGGAAAGUAUUAUGUUACGCCGUUCGGAUCUGCACUUCCA	-0.633
CAAGUCCUGUGCUACACAUCGUAUGUACCGAAUCGGGGCCCGGGCCCGGCCCGGGAAAGUAUUAUGUUACGCCGUUCGGAUCUGCACUUC	-0.789
UGUUCACAUUUUAAGGAUGACAAGUCCACUAUAUGUAACACGUAAGAAUGCUAUCCUGGCAGUAGACACAGGGCCAGAAUAAACUGGCAA	-0.987
UGGGAGGUGGAUUUUGUUUAUUUUUUUAGCUCAUUUCCAGGGGUGGGAAUUUUUUUUUAAUAUGUGUUAUGAAUAAAGUUGUUUUUGAAA	0.103
GUCCUGUGCUACACAUCGUAUGUACCGAAUCGGGAAAAAGGGGAAAAAGGGAAAAAGGGAAAGUAUUAUGUUACGCCGUUCGGAUCUGCA	-0.259
UCAAGUCCUGUGCUACACAUCGUAUGUACCGAAUCGGAAAGGAAAGGGAAAGGGGAAAGUAUUAUGUUACGCCGUUCGGAUCUGCACUUC	-0.714
GCAGGAAGUAAAAACAAAUGGAAAUGCUUCGGAUAGUGGCAGGGGUGGGGGUUGCUAAGGAAAGGGUGGGAUGGGAGUGGGUCAAGAGUU	1.02

Sample 4 — method: aptamer microarray, sandwich; form: DNA with 2'F-ANA; sample: in vitro; tested at: 200 nM; with: Cy3 exosite-II aptamer, 400 nM; direction: higher = stronger binding; strand: GGTTGGTGTGGTTGG
Target: Prothrombin, mature alpha-thrombin (F2, Homo sapiens, UniProt P00734)
Notes: whole 15-mer aptamer, many near background
Modification	mean fluorescence intensity
2'F-ANA at 2 3 7 8 12 14 15	543 a.u.
2'F-ANA at 1 4 5 6 7 10 12 13 15	48.1 a.u.
2'F-ANA at 2 3 4 5 6 7 9 10 15	48.3 a.u.
2'F-ANA at 2 4 8 9 11 12 15	412 a.u.
2'F-ANA at 1 2 9 11 12 13 14	59 a.u.
2'F-ANA at 1 2 3 4 5 6 7 10 11 13 15	57 a.u.
2'F-ANA at 1 3 6 7 8 12 14 15	130 a.u.
2'F-ANA at 1 2 3 4 6 10 11 12 15	66.1 a.u.
2'F-ANA at 2 6 7 9 12 15	633 a.u.
2'F-ANA at 3 5 7 8 9 10 11 12	73.9 a.u.
2'F-ANA at 1 2 4 6 7 8 9 10 12 14 15	46.2 a.u.
2'F-ANA at 4 5 10 12 14	46.8 a.u.
2'F-ANA at 3 4 5 6 8 9 14	52.2 a.u.
2'F-ANA at 2 3 6 8 15	761 a.u.
2'F-ANA at 1 5 6 7 8 9 13 14	52.3 a.u.
2'F-ANA at 1 6 7 8 9 14	61.3 a.u.
2'F-ANA at 1 3 4 5 6 8 10 11 12 14	207 a.u.
2'F-ANA at 7 10 11 12 13	206 a.u.
2'F-ANA at 2 4 5 6 7 9 12	131 a.u.

Repeated from above (sample 2):
Strand	E-score
AGCGCTCG	-0.0191
CTCTTTTC	-0.155
AGGCGCAC	0.0856
CGCCCAGC	0.146
CTTTGGGA	0.0762
CACCTCGG	0.0436
CCACCCAA	-0.145
